Results collected from several papers.
Each line is one published result; not all experiments were run side by side. ± marks the error that the study gave.

SMILES | cell line | observed | technique | time | setting | CC50 [µM]
O=C1c2ccc(O)c(O)c2C(=O)N1Cc1cccc(Cl)c1F | HOS |  | ATPlite | 48 h |  | 5.1 ± 0.6
COC(=O)C1NC(c2ccc[n+](C)c2)C23c4c5c6c7c8c9c(c%10c%11c2c2c4c4c%12c5c5c6c6c8c8c%13c9c9c%10c%10c%11c%11c2c2c4c4c%12c%12c5c5c6c8c6c8c%13c9c9c%10c%10c%11c2c2c4c4c%12c5c6c5c8c9c%10c2c45)C713 (stereo not shown) | Ramos | cell growth or viability |  | 24 h |  | > 25
COc1ccc(CN2C[C@H](O)[C@H](O)[C@@H]2CO)cc1 | MRC-5 |  | MTS | 72 h |  | > 200
CC(C)CC(C)n1ccn2cc(C(=O)NCc3ccc(F)cc3F)c(=O)c(O)c2c1=O (stereo not shown) | HOS | cell growth or viability |  | 48 h |  | > 250
CCOC(=O)C1NC(c2ccc[n+](C)c2)C23c4c5c6c7c8c9c(c%10c%11c2c2c4c4c%12c5c5c6c6c8c8c%13c9c9c%10c%10c%11c%11c2c2c4c4c%12c%12c5c5c6c8c6c8c%13c9c9c%10c%10c%11c2c2c4c4c%12c5c6c5c8c9c%10c2c45)C713 (stereo not shown) | Raji | cell growth or viability |  | 24 h |  | > 50
CCC(NC(=O)CN1C(=O)N/C(=C\c2ccc(C)cc2)C1=O)C(=O)OC (stereo not shown) | PMA-differentiated THP-1, Leishmania-infected |  | resazurin | 72 h |  | 40.9 ± 8.96
Nc1ncnc2c1ncn2[C@@H]1O[C@H](CO)[C@@H](O)[C@H]1F | COLO 205 |  | sulforhodamine B | 11 days | galactose medium | 107
CCOC(=O)C(CC)NC(=O)CN1C(=O)S/C(=C\c2ccc(C)cc2)C1=O (stereo not shown) | PMA-differentiated THP-1, Leishmania-infected |  | resazurin | 72 h |  | > 100
OC[C@H]1O[C@@H](n2cnc3c(O)ncnc32)[C@H](F)[C@@H]1O | COLO 205 |  | sulforhodamine B | 11 days | galactose medium | 109
COC(=O)C(C)NC(=O)C1OC(OC2C(OC3CCC4(C)C(CCC5(C)C4C(=O)C=C4C6CC(C)(C(=O)O)CCC6(C)CCC45C)C3(C)C)OC(C(=O)NC(C)C(=O)OC)C(O)C2O)C(O)C(O)C1O (stereo not shown) | Raji | cell growth or viability | MTT | 72 h |  | 2000
CCc1c(CC2CCCCC2)nc(SCC(=O)c2ccccc2)[nH]c1=O | C8166 |  |  | 3 days |  | > 200
COC(=O)C(CCC(=O)O)NC(=O)C1OC(OC2C(OC3CCC4(C)C(CCC5(C)C4C(=O)C=C4C6CC(C)(C(=O)O)CCC6(C)CCC45C)C3(C)C)OC(C(=O)NC(CCC(=O)O)C(=O)OC)C(O)C2O)C(O)C(O)C1O (stereo not shown) | Raji | cell growth or viability | MTT | 72 h |  | 4000
Nc1ccn([C@@H]2O[C@H](CO)[C@@H](O)[C@H]2F)c(=O)n1 | COLO 205 |  | sulforhodamine B | 11 days | glucose medium | 40

A few entries again:
SMILES | cell line | observed | technique | time | setting | CC50 [µM]
COc1ccc(CN2C[C@H](O)[C@H](O)[C@@H]2CO)cc1 | MRC-5 |  | MTS | 72 h |  | > 200
CC(C)CC(C)n1ccn2cc(C(=O)NCc3ccc(F)cc3F)c(=O)c(O)c2c1=O (stereo not shown) | HOS | cell growth or viability |  | 48 h |  | > 250
